Results from different studies.
Each numbered part is a random draw from the data of one study; scales do not carry over between parts. Values joined by “and” are separate records of one study, mostly repeats; a detail may differ.
Sequence of UniProt Q03141 (whole entry, looked up): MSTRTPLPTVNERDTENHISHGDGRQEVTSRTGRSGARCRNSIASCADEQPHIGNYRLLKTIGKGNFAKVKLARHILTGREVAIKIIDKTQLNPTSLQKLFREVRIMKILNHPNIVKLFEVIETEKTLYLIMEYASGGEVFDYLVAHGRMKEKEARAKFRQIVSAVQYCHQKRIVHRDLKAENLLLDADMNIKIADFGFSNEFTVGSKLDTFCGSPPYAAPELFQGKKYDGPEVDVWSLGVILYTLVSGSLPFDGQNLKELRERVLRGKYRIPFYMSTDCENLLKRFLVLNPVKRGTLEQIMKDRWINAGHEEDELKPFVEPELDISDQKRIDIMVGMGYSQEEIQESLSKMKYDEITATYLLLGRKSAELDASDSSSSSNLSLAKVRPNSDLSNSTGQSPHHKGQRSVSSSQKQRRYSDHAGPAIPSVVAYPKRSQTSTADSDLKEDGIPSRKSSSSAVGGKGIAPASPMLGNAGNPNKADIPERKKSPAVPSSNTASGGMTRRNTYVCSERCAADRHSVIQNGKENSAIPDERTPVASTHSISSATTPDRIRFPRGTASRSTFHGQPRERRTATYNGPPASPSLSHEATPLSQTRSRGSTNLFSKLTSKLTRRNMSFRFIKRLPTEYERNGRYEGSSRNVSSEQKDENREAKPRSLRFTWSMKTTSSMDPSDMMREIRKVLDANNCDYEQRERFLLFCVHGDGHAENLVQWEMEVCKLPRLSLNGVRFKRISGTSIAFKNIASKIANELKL
Sequence of UniProt O08648 (whole entry, looked up): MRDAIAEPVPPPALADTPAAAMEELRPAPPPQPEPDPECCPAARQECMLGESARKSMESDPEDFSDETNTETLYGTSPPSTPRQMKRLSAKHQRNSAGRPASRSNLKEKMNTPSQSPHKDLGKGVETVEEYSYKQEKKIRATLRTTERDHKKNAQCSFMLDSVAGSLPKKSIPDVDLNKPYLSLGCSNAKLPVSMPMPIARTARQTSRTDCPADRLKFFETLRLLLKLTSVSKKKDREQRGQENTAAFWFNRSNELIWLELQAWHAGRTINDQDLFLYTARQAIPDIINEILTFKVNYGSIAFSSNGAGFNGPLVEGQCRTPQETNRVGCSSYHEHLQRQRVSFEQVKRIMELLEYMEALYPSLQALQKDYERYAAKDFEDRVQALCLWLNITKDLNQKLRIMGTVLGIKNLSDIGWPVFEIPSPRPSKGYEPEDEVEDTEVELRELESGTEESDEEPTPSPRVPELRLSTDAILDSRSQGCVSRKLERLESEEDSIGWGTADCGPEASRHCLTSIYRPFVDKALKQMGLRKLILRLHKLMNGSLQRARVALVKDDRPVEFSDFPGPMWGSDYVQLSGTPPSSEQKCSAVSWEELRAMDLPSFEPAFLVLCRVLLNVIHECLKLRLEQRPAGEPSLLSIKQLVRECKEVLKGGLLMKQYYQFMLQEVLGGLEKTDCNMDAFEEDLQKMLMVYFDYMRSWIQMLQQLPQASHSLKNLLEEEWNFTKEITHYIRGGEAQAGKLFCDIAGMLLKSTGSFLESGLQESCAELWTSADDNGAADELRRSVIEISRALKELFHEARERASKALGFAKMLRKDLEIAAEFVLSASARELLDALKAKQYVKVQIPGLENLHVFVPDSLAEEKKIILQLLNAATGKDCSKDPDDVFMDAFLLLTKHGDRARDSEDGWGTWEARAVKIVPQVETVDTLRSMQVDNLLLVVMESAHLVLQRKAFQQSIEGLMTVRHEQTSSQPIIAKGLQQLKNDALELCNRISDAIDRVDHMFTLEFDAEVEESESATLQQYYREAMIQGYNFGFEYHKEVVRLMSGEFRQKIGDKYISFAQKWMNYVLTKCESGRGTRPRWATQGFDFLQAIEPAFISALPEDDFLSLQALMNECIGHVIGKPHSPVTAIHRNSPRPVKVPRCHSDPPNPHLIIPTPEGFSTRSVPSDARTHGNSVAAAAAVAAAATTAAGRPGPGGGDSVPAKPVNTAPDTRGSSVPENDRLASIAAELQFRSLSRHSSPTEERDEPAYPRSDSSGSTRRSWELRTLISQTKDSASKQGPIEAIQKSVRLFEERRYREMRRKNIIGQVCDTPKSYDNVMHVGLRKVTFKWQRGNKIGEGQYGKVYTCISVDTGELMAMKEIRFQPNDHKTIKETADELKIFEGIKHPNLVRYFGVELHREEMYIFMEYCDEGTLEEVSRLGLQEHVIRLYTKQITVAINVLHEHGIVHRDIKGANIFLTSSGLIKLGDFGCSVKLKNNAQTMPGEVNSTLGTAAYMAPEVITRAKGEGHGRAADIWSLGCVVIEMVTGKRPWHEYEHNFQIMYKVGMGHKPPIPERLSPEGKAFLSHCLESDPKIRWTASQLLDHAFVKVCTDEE

Sample 1 — species: mouse; sample: microsomes or S9; tested at: 2 µM; time: 0.5 h; endpoint: remaining compound
SMILES = O=C(CN1CCCC1Cn1cccn1)Nc1ccccc1-n1ccnc1 (centres unmarked); value = 46.2%
SMILES = CCOc1cc2c(cc1C1CC(=O)NCc3nc4sccn4c31)CCC2 (centres unmarked); value = 7.94%
SMILES = Cc1cc(C)n(NC(=O)c2nn(C)cc2Br)c(=O)c1; value = 94.7%
SMILES = CC(C)(C)OC(=O)N[C@@H](CC(=O)N1CCCN(C(=O)CN2CCC(c3ccccc3)CC2)CC1)Cc1cc(F)c(F)cc1F; value = < 1%

Sample 2 — observed: binding; method: radioligand binding; tested at: 10 µM; endpoint: inhibition
Target: Histamine H1 receptor (HRH1, Homo sapiens, UniProt P35367)
Sequence of UniProt P35367 (whole entry, looked up): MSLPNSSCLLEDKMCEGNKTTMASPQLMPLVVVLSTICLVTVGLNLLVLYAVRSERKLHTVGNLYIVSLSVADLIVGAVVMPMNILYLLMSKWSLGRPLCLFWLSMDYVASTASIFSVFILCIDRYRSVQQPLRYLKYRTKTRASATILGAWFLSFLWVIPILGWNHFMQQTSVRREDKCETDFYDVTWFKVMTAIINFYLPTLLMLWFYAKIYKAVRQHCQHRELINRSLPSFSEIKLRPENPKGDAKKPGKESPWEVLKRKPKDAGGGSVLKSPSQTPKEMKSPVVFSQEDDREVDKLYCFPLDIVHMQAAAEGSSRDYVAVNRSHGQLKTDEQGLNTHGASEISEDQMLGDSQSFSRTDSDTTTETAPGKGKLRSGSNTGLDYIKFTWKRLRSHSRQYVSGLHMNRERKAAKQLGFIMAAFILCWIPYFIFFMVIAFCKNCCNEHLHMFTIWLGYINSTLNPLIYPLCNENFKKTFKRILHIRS
Structure (SMILES) = CNC(=O)Nc1ccc2c(c1)[C@]1(CC2)OC(=O)N(CC(=O)N(Cc2ccc(F)cc2)[C@@H](C)C(F)(F)F)C1=O; value = -7.68%
Structure (SMILES) = Cc1c[nH]c2nccc(Oc3c(F)cc(Nc4cc(Cl)nc(N)n4)cc3F)c12; value = -0.06%
Structure (SMILES) = CS(=O)(=O)NCC[C@H](NC(=O)c1cncc2c1cnn2-c1ccc(F)cc1)c1ccnc(S(C)(=O)=O)c1; value = 12.5%
Structure (SMILES) = Cc1c(NC(=O)c2cc(C(N)=O)nc3cc(F)ccc23)c(C(F)(F)F)nn1Cc1ccc(C(C)(C)C)cc1; value = 46.1%
Structure (SMILES) = CN1CCN(C(=O)C(C)(C)c2ccc(C(=O)Nc3cn4cc(-c5ccncc5)ccc4n3)cc2)CC1; value = 54.9%
Structure (SMILES) = O[C@]1(C(F)(F)F)CCCC[C@H]1Nc1ccc(F)cc1; value = 25.7%
Structure (SMILES) = CCOC(=O)c1cc2cc(-c3cc(C(=O)NCc4ccc(C(=O)O)cc4)nn3C)ccc2[nH]1; value = 9.64%
Structure (SMILES) = CC(C)CC(=O)N1CCc2nc(-c3ccc(Br)cc3)nc(N(C)Cc3ccccc3)c2C1; value = 12.6%
Structure (SMILES) = Cc1cc(-n2nc(Cc3cc(F)cc(C(F)(F)F)c3)nc2C)ccc1C(N)=O; value = 8.06%
Structure (SMILES) = C[C@@H]1CN(c2cc(-c3nn(C)c4ccc(OC5(C)CC5)cc34)ncn2)C[C@H](C)O1; value = 11.9%

Sample 3 — cell line: mouse MPNST tumor cells; method: high-content nuclear imaging; refers to: cell number; tested at: 10 µM; time: 12 h; notes: mean of 2 replicates; baseline: plate mean; direction: higher = more cells; endpoint: nuclei count
SMILES = CC[C@H](C)C(=O)O[C@H]1CCC=C2C=C[C@H](C)[C@H](CC[C@@H]3C[C@@H](O)CC(=O)O3)[C@H]21; value = -4.93 z-score and -3.61 z-score
SMILES = O=C(NC1CCOCC1)c1ccc(-c2cc(-c3c[nH]nc3-c3ccccn3)ccn2)cc1; value = -2.12 z-score
SMILES = COc1cc(C(=O)N2CCC(N3CCN(C)CC3)CC2)ccc1Nc1ncc2c(n1)N(C)c1ccccc1C(=O)N2C; value = -3.26 z-score
SMILES = Cc1nc(-c2ccc(OCC(C)C)c(C#N)c2)sc1C(=O)O; value = 2.36 z-score and 1.23 z-score
SMILES = CSc1ccc(C(=O)NC2CCCCC2NC(=O)CNC(=O)c2cc(C(F)(F)F)ccc2NC(=O)NC(C)C)cc1 (centres unmarked); value = -0.141 z-score

Sample 4 — endpoint: inhibition
Compound: COc1cc(C(=O)N2CCC(N3CCN(C)CC3)CC2)ccc1Nc1ncc2c(n1)N(C)c1ccccc1C(=O)N2C
target = MAP3K2 and MAP3K3 (mouse); test = probe labelling, KiNativ, refers to: DIkGANILR peptide, LYS2 site; system = brain tissue lysate (mouse); conditions = 0.1 µM, added: ATP acyl-phosphate probe; value = -1.7%
target = MAP/microtubule affinity-regulating kinase 3 (Mark3, Mus musculus, UniProt Q03141); test = KiNativ profiling; system = mouse brain lysate; conditions = 0.1 µM, LYS1 site, added: ADP acyl phosphate probe; value = -2.4%
target = Mitogen-activated protein kinase kinase kinase 4 (Map3k4, Mus musculus, UniProt O08648); test = KiNativ profiling; system = mouse brain lysate; conditions = 1 µM, LYS1 site, added: ADP acyl phosphate probe; value = -3.8%
target = FES (human); test = probe labelling, KiNativ ATP probe; system = human PBMC lysate; conditions = concentration not given, LYS1 labelled site; value = 6.3%

Repeated from above (sample 4):
target = MAP3K2 and MAP3K3 (mouse); test = probe labelling, KiNativ, refers to: DIkGANILR peptide, LYS2 site; system = brain tissue lysate (mouse); conditions = 0.1 µM, added: ATP acyl-phosphate probe; value = -1.7%
target = MAP/microtubule affinity-regulating kinase 3 (Mark3, Mus musculus, UniProt Q03141); test = KiNativ profiling; system = mouse brain lysate; conditions = 0.1 µM, LYS1 site, added: ADP acyl phosphate probe; value = -2.4%
target = Mitogen-activated protein kinase kinase kinase 4 (Map3k4, Mus musculus, UniProt O08648); test = KiNativ profiling; system = mouse brain lysate; conditions = 1 µM, LYS1 site, added: ADP acyl phosphate probe; value = -3.8%
